Assay results of several laboratories.
A part holds a random share of what one study measured. Values joined by “and” are separate records of one study, mostly repeats; a detail may differ.
Chain of UniProt P31751 (whole entry, looked up): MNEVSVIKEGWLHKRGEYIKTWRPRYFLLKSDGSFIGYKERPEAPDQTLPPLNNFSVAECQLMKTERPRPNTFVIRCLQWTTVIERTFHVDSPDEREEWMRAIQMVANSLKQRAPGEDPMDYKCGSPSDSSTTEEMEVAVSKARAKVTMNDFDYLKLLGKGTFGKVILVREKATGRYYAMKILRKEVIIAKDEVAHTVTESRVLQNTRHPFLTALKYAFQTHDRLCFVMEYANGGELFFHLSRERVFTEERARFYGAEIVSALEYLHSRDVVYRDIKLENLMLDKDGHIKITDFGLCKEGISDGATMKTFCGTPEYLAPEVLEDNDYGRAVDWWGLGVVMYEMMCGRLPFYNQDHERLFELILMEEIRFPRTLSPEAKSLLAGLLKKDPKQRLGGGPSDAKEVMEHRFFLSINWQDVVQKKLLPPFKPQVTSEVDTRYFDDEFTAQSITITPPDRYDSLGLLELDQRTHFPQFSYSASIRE
Chain of UniProt Q9BZJ6 (whole entry, looked up): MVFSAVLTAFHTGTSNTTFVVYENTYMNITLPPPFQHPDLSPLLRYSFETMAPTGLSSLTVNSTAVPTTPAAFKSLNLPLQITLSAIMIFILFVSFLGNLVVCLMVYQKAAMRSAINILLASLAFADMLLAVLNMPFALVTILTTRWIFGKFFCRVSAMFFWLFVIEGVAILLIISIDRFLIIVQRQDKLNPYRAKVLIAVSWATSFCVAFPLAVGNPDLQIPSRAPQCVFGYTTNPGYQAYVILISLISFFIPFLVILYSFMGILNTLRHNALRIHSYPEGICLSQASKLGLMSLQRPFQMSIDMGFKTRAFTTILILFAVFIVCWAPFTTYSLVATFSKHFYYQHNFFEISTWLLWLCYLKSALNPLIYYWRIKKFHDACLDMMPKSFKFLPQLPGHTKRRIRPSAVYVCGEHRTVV
Chain of UniProt Q5VT25 (whole entry, looked up): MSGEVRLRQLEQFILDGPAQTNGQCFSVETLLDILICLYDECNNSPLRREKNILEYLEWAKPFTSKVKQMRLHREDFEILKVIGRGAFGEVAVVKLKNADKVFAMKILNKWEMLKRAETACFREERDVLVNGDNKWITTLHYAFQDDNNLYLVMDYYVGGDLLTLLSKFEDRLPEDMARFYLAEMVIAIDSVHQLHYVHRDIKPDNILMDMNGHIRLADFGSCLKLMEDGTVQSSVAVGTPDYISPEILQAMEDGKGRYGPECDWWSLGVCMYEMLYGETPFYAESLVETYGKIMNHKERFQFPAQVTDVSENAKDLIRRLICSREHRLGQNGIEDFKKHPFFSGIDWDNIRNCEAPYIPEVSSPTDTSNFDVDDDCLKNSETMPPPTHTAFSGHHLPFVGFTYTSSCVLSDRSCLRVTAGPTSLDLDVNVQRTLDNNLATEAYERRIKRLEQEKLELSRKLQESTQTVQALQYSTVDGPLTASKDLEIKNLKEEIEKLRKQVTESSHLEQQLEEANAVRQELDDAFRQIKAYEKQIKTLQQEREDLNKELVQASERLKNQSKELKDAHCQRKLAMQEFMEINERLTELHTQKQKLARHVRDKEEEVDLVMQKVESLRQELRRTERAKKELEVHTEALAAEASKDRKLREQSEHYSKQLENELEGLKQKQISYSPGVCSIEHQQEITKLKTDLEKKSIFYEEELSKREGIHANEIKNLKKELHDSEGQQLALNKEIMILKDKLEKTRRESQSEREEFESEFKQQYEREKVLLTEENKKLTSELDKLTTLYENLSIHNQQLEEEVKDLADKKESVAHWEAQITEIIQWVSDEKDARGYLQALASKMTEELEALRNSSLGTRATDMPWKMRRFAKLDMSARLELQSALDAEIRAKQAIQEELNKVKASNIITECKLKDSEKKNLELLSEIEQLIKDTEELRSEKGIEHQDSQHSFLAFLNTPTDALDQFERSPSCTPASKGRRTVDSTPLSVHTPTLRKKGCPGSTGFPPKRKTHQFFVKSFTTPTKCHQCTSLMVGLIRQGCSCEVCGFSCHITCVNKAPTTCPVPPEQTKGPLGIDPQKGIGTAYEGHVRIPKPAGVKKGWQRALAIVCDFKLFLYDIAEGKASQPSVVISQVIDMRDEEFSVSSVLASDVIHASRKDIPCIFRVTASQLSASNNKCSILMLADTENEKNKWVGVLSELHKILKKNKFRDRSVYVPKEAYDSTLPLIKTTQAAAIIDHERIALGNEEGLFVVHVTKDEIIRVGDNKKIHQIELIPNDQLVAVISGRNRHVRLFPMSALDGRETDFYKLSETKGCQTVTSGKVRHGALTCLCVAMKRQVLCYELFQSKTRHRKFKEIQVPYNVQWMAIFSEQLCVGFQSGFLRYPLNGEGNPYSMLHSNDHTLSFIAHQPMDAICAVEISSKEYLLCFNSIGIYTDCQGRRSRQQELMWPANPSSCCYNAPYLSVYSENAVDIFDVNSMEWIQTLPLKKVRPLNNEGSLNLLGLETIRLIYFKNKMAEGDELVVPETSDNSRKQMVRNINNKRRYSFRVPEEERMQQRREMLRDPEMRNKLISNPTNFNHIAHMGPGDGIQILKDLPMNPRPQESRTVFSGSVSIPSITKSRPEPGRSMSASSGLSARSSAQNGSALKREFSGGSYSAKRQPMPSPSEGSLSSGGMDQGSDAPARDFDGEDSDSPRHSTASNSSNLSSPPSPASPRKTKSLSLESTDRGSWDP
Chain of UniProt P49840 (whole entry, looked up): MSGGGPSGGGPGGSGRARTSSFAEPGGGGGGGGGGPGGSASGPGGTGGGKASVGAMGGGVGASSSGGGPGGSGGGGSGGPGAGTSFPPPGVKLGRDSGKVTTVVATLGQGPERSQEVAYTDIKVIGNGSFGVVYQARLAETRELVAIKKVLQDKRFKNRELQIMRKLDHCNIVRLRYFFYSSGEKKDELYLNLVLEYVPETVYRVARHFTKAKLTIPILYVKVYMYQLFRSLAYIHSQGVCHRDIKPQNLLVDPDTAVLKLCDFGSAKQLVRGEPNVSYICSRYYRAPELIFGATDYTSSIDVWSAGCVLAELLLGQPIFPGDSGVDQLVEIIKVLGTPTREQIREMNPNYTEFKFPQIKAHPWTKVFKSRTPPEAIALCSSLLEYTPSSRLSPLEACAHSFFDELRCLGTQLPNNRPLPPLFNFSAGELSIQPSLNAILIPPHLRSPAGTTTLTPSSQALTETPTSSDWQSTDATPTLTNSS
Chain of UniProt Q96J92 (whole entry, looked up): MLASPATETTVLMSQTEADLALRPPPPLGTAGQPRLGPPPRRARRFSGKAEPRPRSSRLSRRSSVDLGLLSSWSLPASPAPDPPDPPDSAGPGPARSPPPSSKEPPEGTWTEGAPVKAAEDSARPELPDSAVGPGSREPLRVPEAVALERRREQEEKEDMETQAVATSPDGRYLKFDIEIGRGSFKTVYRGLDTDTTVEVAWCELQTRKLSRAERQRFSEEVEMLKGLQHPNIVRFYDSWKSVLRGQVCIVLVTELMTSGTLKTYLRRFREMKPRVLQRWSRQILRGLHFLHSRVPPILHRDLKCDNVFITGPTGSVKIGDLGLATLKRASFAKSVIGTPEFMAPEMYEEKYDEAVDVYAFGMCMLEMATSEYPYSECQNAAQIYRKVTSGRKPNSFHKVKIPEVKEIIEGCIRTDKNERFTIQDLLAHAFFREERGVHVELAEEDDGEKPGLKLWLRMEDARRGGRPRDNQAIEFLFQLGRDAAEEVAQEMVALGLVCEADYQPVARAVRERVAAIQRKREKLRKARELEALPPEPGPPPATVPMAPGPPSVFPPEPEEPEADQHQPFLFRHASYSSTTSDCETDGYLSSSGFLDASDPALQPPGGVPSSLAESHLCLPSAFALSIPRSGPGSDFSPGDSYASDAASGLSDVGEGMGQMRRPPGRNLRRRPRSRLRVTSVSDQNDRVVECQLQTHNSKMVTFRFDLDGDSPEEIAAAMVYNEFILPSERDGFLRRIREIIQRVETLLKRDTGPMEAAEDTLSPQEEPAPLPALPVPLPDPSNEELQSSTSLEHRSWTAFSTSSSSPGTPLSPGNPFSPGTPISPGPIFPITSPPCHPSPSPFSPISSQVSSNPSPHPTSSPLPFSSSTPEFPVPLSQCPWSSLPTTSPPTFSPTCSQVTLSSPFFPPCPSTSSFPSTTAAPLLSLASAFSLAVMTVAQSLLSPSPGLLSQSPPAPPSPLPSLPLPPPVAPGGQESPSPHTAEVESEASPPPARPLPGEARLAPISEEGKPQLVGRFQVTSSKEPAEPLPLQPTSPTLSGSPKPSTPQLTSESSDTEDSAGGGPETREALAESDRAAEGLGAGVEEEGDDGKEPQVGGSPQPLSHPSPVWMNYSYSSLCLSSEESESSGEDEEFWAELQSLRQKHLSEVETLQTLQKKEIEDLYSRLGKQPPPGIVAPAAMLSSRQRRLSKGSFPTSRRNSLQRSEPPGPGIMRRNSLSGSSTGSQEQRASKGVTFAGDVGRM
Chain of UniProt P21453 (whole entry, looked up): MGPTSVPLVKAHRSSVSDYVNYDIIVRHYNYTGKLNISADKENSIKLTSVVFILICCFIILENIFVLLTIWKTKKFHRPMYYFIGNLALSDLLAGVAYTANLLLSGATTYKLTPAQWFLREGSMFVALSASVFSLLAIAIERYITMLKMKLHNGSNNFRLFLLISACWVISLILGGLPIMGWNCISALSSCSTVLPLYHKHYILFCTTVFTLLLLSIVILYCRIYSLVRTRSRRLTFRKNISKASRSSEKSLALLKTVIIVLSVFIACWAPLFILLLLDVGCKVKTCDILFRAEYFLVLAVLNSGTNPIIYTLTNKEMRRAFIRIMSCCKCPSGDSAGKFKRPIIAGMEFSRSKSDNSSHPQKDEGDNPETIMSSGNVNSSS

Series 1
SMILES: NC(N)=NC(=O)c1nc(Cl)c(N2CCCCCC2)nc1N
Effect on: β-arrestin recruitment
Mode: agonist
Method: PRESTO-Tango
Tested at: 10 µM
Relative to: untreated
Endpoint: fold over basal
target = S1PR1 (Homo sapiens, UniProt P21453); result = 1.19
target = ADGRF1 (Homo sapiens, UniProt Q5T601); result = 0.9
target = OPRM1 (Homo sapiens, UniProt P35372); result = 3.95
target = SSTR2 (Homo sapiens, UniProt P30874); result = 0.6
target = HRH1 (Homo sapiens, UniProt P35367); result = 1.22 fold
target = Probable G-protein coupled receptor 63 (GPR63, Homo sapiens, UniProt Q9BZJ6); result = 0.66
target = OXER1 (Homo sapiens, UniProt Q8TDS5); result = 0.74

Series 2
Compound: CC(C)C[C@@H]1NC(=O)[C@@H](N(C)C(=O)[C@H](CC2CCC2)NC(=O)[C@@H]2C[C@@H](F)CN2C(=O)C2(C(F)(F)F)CC(F)(F)C2)CCCCNC(=O)C2(CC2)NC(=O)[C@H](Cc2cc(Cl)ccc2Cl)N(C)C1=O
Method: flow cytometry
Endpoint: cleaved PARP positive cells
cell line = NCI-H446; tested at = 60 nM; time = 3 days; notes = without Mps1 inhibitor; result = 24.1% and 29.6% and 24.3%
cell line = HCC4006; tested at = 200 nM; time = 72 h; result = 3.03% and 1.36% and 1.03%
cell line = NCI-H446; tested at = 20 nM; time = 3 days; notes = without Mps1 inhibitor; result = 24.3% and 29% and 25.1%
cell line = HCC4006; tested at = 2000 nM; time = 72 h; result = 2.67% and 2.27% and 5.83%
cell line = NCI-H446; tested at = 6 nM; time = 3 days; together with = Mps1 inhibitor 3 nM; result = 7.24% and 8.07% and 7.49%

Series 3
Target: Diamine acetyltransferase 1 (Homo sapiens, UniProt P21673)
Mode: inhibitor
Tested at: 10 µM
Relative to: control
Endpoint: remaining activity
Construct (P21673 1-171): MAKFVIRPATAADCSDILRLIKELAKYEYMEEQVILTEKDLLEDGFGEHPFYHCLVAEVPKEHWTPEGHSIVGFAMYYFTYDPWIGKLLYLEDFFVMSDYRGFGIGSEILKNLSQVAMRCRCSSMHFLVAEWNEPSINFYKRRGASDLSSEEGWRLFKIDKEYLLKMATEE
SMILES = Oc1cc(O)c2c(c1)O[C@@H](c1cc(O)c(O)c(O)c1)[C@H](O)C2; result = 86.9%
SMILES = COC(=O)/C=C/c1ccc(O)c(O)c1; result = 103%
SMILES = C=C(C)[C@@H]1CC[C@]2(C(=O)O)CC[C@]3(C)[C@H](CC[C@@H]4[C@@]5(C)CCC(=O)C(C)(C)[C@@H]5CC[C@]43C)[C@@H]12; result = 90.9%
SMILES = COc1ccc([C@H]2OC[C@H]3[C@@H]2CO[C@@H]3c2ccc(OC)c(OC)c2)cc1OC; result = 104%
SMILES = O=C[C@H](O)[C@@H](O)[C@H](O[C@H]1O[C@H](CO)[C@@H](O[C@H]2O[C@H](CO)[C@@H](O[C@H]3O[C@H](CO)[C@@H](O[C@H]4O[C@H](CO)[C@@H](O[C@H]5O[C@H](CO)[C@@H](O)[C@H](O)[C@H]5O)[C@H](O)[C@H]4O)[C@H](O)[C@H]3O)[C@H](O)[C@H]2O)[C@H](O)[C@H]1O)[C@H](O)CO; result = 82.6%
SMILES = COc1ccc(-c2oc3cc(O)cc(O)c3c(=O)c2O)cc1; result = 81.4%
SMILES = O=C1CCC(=O)O1; result = 95.1%

Series 4
Structure (SMILES): CNCc1ccccc1-c1csc([C@H](C)Nc2nc(C)nc3cc(OC)c(OC)cc23)c1
Effect on: cell-free assay
Method: competition with immobilised ligand
Tested at: 1 µM
Endpoint: remaining binding
target = GSK3A (Homo sapiens, UniProt P49840); result = 100%
target = MET (Homo sapiens, UniProt P08581, M1250T); result = 96%
target = CDC42BPA (Homo sapiens, UniProt Q5VT25); result = 92%
target = WNK4 (Homo sapiens, UniProt Q96J92); result = 90%
target = PRKCI (Homo sapiens, UniProt P41743); result = 87%
target = PIK3CG (Homo sapiens, UniProt P48736); result = 73%
target = Ribosomal protein S6 kinase alpha-2, N-terminal kinase domain (RPS6KA2, Homo sapiens, UniProt Q15349); result = 100%
target = MET (Homo sapiens, UniProt P08581, Y1235D); result = 98%
target = CDK11A (Homo sapiens, UniProt Q9UQ88); result = 100%
target = ZAP70 (Homo sapiens, UniProt P43403); result = 100%
target = TEC (Homo sapiens, UniProt P42680); result = 100%
target = AKT2 (Homo sapiens, UniProt P31751); result = 90%
target = CLK4 (Homo sapiens, UniProt Q9HAZ1); result = 100%

Excerpt of the above (series 4):
target = CDK11A (Homo sapiens, UniProt Q9UQ88); result = 100%
target = ZAP70 (Homo sapiens, UniProt P43403); result = 100%
